Results gathered from unrelated publications.
Numbered parts are unrelated; each lists some results of a single study.
UniProt P29322, sequence (whole entry, looked up): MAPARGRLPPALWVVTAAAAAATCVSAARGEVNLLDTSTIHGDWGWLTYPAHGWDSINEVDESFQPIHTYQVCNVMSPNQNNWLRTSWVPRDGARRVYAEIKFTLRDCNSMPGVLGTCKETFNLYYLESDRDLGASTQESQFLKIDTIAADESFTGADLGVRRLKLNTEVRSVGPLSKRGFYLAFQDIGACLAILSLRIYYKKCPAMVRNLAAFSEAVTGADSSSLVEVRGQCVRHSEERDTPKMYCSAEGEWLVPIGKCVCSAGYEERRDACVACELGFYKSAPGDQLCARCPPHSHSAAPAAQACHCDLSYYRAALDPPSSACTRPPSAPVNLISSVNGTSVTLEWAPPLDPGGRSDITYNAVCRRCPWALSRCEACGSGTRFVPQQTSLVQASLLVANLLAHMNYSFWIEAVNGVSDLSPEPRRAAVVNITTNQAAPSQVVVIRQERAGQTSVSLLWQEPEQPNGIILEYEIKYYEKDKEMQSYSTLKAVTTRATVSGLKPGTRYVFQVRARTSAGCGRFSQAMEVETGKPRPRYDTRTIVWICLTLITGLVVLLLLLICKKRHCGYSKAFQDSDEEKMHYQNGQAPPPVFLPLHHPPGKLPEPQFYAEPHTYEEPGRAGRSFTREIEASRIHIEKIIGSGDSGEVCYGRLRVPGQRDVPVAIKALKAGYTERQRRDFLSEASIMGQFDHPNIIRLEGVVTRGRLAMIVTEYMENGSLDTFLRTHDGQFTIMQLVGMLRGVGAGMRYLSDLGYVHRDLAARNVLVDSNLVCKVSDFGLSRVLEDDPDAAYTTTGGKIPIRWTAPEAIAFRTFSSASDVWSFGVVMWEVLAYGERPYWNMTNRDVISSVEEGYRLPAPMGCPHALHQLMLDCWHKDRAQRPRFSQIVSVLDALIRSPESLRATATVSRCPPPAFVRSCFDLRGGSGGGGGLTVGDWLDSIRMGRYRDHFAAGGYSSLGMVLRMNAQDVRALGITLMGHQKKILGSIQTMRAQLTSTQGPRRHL
UniProt Q86YV6, sequence (whole entry, looked up): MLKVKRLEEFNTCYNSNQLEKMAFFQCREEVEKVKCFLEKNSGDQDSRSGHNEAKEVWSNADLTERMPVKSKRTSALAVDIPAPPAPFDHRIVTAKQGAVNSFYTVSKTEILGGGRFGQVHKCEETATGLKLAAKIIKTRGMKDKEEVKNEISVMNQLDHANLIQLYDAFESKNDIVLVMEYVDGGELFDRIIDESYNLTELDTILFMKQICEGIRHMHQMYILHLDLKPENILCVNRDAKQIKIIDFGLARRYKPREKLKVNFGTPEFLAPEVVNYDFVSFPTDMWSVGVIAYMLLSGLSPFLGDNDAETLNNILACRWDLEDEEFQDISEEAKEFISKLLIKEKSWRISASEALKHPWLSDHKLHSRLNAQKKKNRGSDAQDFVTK
UniProt O94804, sequence (whole entry, looked up): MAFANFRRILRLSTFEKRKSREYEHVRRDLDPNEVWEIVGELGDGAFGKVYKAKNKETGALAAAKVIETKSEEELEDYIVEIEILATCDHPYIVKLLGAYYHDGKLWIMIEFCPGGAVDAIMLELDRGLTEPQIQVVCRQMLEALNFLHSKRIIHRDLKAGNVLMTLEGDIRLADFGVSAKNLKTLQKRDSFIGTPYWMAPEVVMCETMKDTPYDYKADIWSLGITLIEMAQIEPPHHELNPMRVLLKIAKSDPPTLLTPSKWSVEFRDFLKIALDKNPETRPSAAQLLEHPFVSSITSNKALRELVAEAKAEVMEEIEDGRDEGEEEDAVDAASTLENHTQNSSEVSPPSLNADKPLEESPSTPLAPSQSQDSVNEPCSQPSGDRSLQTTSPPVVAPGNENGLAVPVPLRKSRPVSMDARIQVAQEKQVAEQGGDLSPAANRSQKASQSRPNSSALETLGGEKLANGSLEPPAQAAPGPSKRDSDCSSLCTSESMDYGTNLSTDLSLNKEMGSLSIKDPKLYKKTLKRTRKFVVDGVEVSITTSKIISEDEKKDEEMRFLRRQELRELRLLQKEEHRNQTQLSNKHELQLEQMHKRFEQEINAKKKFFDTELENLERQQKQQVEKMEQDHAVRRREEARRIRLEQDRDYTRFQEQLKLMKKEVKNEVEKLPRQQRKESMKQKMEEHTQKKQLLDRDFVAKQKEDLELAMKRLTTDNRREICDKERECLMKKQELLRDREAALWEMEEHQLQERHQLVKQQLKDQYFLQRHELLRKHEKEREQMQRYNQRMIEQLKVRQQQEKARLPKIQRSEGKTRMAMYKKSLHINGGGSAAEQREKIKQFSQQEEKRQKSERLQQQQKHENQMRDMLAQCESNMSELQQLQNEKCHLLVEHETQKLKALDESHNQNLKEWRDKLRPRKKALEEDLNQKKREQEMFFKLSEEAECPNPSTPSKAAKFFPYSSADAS
UniProt Q99759, sequence (whole entry, looked up): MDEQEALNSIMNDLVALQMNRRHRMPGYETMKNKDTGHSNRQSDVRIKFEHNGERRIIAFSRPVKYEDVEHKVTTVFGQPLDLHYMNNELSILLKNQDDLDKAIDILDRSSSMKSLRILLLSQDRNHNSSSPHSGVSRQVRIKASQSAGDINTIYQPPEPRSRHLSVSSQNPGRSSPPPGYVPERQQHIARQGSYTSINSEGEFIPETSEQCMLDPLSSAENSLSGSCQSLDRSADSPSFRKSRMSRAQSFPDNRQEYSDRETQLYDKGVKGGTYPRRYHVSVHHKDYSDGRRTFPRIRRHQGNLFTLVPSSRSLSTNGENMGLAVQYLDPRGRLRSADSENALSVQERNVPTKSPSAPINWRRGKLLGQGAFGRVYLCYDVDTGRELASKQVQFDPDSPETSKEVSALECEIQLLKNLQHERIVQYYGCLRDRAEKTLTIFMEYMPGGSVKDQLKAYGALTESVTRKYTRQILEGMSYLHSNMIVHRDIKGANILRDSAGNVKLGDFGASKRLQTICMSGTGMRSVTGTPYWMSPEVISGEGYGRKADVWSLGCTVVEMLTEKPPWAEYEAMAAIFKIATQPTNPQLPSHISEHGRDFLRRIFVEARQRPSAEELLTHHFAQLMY
UniProt Q00537, sequence (whole entry, looked up): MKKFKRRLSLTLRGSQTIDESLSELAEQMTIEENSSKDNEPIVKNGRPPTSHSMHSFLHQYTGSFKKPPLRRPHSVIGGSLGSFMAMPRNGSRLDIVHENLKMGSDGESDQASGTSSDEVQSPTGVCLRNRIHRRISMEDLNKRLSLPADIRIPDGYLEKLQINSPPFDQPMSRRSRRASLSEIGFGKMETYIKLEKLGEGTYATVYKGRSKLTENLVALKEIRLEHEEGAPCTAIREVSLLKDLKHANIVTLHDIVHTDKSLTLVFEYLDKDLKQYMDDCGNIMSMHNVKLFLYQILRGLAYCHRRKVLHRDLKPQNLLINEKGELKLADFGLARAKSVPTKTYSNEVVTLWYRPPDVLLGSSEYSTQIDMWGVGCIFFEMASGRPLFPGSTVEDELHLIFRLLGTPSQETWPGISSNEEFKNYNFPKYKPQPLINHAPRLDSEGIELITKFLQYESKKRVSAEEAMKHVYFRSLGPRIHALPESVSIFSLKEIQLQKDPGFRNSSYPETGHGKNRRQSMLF

Sample 1
Target: Misshapen-like kinase 1 (MINK1, Homo sapiens, UniProt Q8N4C8)
UniProt Q8N4C8, sequence (whole entry, looked up): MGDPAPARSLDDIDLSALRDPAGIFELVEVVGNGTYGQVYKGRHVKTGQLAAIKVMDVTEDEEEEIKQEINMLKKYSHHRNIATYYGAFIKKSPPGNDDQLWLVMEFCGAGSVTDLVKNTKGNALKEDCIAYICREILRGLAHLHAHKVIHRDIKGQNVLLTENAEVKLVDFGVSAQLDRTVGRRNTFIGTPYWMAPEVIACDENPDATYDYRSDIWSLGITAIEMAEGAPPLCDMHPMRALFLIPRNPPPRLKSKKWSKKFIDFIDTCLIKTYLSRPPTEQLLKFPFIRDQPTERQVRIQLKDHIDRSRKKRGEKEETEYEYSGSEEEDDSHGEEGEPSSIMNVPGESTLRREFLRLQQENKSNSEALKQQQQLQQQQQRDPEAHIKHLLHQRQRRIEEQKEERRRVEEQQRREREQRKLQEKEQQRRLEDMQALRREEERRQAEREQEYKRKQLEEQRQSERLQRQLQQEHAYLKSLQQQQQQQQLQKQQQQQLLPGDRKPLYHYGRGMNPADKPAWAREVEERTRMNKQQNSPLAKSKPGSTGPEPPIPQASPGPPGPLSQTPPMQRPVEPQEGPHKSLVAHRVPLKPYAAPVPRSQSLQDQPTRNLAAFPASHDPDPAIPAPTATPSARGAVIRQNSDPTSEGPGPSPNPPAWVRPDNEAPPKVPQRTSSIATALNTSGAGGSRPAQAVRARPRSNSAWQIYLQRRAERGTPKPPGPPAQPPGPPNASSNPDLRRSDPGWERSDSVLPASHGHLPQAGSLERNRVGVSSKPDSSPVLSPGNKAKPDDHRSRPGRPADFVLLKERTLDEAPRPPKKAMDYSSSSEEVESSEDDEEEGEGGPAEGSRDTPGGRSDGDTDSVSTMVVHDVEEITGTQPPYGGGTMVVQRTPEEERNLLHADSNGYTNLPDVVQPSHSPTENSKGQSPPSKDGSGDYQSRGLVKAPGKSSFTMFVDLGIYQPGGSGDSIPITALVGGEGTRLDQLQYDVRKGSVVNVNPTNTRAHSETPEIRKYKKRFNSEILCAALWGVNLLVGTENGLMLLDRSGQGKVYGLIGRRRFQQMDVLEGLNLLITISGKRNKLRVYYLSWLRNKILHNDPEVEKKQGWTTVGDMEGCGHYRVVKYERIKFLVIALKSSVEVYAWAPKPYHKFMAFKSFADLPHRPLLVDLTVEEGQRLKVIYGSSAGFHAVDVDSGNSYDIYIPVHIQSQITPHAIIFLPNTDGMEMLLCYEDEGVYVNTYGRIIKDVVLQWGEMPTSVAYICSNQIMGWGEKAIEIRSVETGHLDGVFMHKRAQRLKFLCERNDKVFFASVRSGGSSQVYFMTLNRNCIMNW
Observed: enzyme activity
Mode: inhibitor
Concentration: 0.5 µM
Baseline: control
COc1cc2nccc(Oc3ccc(NC(=S)NC(=O)c4ccccc4C)cc3)c2cc1OC has a remaining activity of 90.1%.
O=C(CCCc1ccc(-c2ccccc2F)cc1)Nc1ccc(O)cc1 gave a remaining activity of 97.3%.
The remaining activity of CNC(=O)c1cc(Oc2ccc(NC(=O)Nc3ccc(Cl)c(C(F)(F)F)c3)cc2)ccn1 is reported as 108%.
With Cc1cccc(-c2[nH]c(C(C)(C)C)nc2-c2ccc3c(c2)OCO3)n1 the remaining activity was 98.4%.
The remaining activity of C#Cc1cccc(Nc2ncnc3cc(OCCOC)c(OCCOC)cc23)c1 is reported as 85.7%.
For COc1ccc(OC)c2c(=S)c3ccccc3[nH]c12, the remaining activity was 95.9%.
With O=c1c2ccccc2[nH]c(=S)n1CCN1CCC(=C(c2ccc(F)cc2)c2ccc(F)cc2)CC1 the remaining activity was 94.4%.
The remaining activity of CN(C)c1ccc(C=C2C(=O)Nc3ccccc32)cc1 is reported as 79%.
Cn1sc(=O)n(Cc2ccccc2)c1=O gave a remaining activity of 88.7%.
Nc1ncnc2n[nH]c(Nc3ccc(F)cc3)c12 gave a remaining activity of 88.9%.
O=C1NC(=O)C(c2cn(CCCO)c3ncccc23)=C1c1cnccn1 has a remaining activity of 84.8%.
The remaining activity of COc1ccc(C(=O)Nc2sc3c(c2C(N)=O)CCCC3)cc1OC is reported as 85%.
For Nc1ccc2ncnc(NCCc3ccc(Oc4ccccc4)cc3)c2c1, the remaining activity was 95.4%.
For COc1cc2ncnc(Nc3ccc(Oc4ccccc4)cc3)c2cc1OC, the remaining activity was 101%.
For Cc1nc(-c2ccccc2)c(-c2ccncc2)o1, the remaining activity was 97.9%.

Sample 2
SMILES: CN(C)c1ncnc(-c2ccc3nc(Nc4cc(CN5CCN(C(=O)CC(F)(F)F)CC5)ccn4)[nH]c3c2)c1Cl
Observed: cell-free assay
Method: competition with immobilised ligand
Concentration: 1 µM
Cyclin-dependent kinase 17 (CDK17, Homo sapiens, UniProt Q00537) — remaining binding: 100%.
The remaining binding was 87% (Mitogen-activated protein kinase kinase kinase 6 (MAP3K6, Homo sapiens, UniProt O95382)).
The remaining binding was 100% (Dual specificity protein kinase TTK (TTK, Homo sapiens, UniProt P33981)).
Serine/threonine-protein kinase Nek3 (NEK3, Homo sapiens, UniProt P51956) — remaining binding: 69%.
For Serine/threonine-protein kinase 10 (STK10, Homo sapiens, UniProt O94804): remaining binding read 54%.
For Maternal embryonic leucine zipper kinase (MELK, Homo sapiens, UniProt Q14680): remaining binding read 95%.
Hepatocyte growth factor receptor (MET, Homo sapiens, UniProt P08581, M1250T) — remaining binding: 70%.
It gave 50% for remaining binding (Mitogen-activated protein kinase kinase kinase 3 (MAP3K3, Homo sapiens, UniProt Q99759)).
The remaining binding was 100% (Ephrin type-A receptor 8 (EPHA8, Homo sapiens, UniProt P29322)).
The remaining binding was 29% (Tyrosine-protein kinase ABL1, non-phosphorylated (ABL1, Homo sapiens, UniProt P00519, F317L)).
MAP kinase-interacting serine/threonine-protein kinase 2 (MKNK2, Homo sapiens, UniProt Q9HBH9) — remaining binding: 37%.
It gave 100% for remaining binding (Myosin light chain kinase family member 4 (MYLK4, Homo sapiens, UniProt Q86YV6)).
The remaining binding was 100% (Cyclin-dependent kinase 11A (CDK11A, Homo sapiens, UniProt Q9UQ88)).
Serine/threonine-protein kinase 32C (STK32C, Homo sapiens, UniProt Q86UX6) — remaining binding: 100%.

Sample 3
Target: RNA binding protein fox-1 homolog 2, RRM domain, GST-SBP tag (RBFOX2, Homo sapiens, UniProt O43251-10, residues 100-194)
Method: RNA Bind-n-Seq
Molecule type: RNA
Sample: in vitro
Concentration: 365 nM
Setting: natural RNA segment, single round, ends assumed
Baseline: no-protein control
Direction: higher = stronger binding
Construct (chain): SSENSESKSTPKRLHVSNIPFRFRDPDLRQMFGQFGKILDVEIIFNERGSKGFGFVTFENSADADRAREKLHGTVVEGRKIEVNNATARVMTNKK
`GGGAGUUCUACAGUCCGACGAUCAGCUGCCCCUGUCCCCACCUCUGGAGAAUCCACCCCCACCAGAUUCCUCCGCGGGAGGUGGCCCUCAGCUGGGACAGUGGGGACCCAGGCUUCUCCUCAGAGCCAGGCCCUGGAAUUCUCGGGUGCCAA`: “RBNS enrichment (R)” 0.283.
`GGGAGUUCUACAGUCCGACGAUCGGAAGCAUCUGUCUCACAUAGGCUGUAAGCUCUCUGAGAGCAGGCACCUGUCAUCCCAGUCCAUCCCACCGUUCCCUUACUGUACUCUGCAACUCACCAUCUGGAAUUAAUGGAAUUCUCGGGUGCCAA` — result for “RBNS enrichment (R)”: 0.85.
For `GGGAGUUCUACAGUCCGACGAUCCAUCAACAUGGCACCCUGCCUCAUUGGCUAAGUGUUAAGUGAUGGGCUUAUUCUUGAAAGCAGCUUGGGGUGUCUUUUUAAAAUGUAGAAAAAAAUGUAAAGUGACAGUUUGGAAUUCUCGGGUGCCAA`, “RBNS enrichment (R)” read 0.433.
Under “RBNS enrichment (R)”, `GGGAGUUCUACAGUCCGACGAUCGAAGUUUUAAUUGUUCUGACUAAACUUAGGAGUUGAGCUAGGAGUGCGUUCAUGGUUUCUUCACUAACAGAGGAAUUAUGCUUUGCACUACGUCCCUCCAAGUGAAGACAUGGAAUUCUCGGGUGCCAA` is recorded as 0.322.
For `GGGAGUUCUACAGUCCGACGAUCAUGGCUGGGCAGUUGAGCACCUGCUCUUCACCUGCCCUGGCUAUGGCUGUGGCAAGCUGUGAGCCCUCGCCUUGUCUGGGCCAAUCUGAGGACUGAACUGACCAGAUAGCUGGAAUUCUCGGGUGCCAA`, “RBNS enrichment (R)” read 0.402.
Under “RBNS enrichment (R)”, `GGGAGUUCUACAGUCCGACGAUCCAGCGCUUCCUUCCUGGGAAGCCUGUCGUCUGGGUUAAUCUGUUGAUGUAUCUUCAUUGUCAUCUCUCAUCCUGAUGUGUGCCAGUUAGAGGACUGUCUGGUAUCCAAGAUGGAAUUCUCGGGUGCCAA` is recorded as 0.277.
`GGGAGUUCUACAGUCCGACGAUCAUAAACAAAAGUAAAUACUAUAAUACAAACUUCCUUCUGAAAUAAAAGUAGAUCUGGUAAAAAUGUGGCUUUUGUUCUGAGUGUUUCAUUUUGAUUUUGCAUUGUUUUGCUGGAAUUCUCGGGUGCCAA` — result for “RBNS enrichment (R)”: 1.05.
`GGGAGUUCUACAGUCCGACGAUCGUCCUGGGUUCCUUGAACAUGUUCCCAUGUAGGAGGUAAAACCAAUUCUGGAAGUGUCUAUGAACUUCCAUAAAUAACUUUAAUUUUAGUAUAAUGAUGGUCUUGGAUUGUGGAAUUCUCGGGUGCCAA`: “RBNS enrichment (R)” 0.302.

Mixed results
Method: cross-linking MS
For `CCT4 (Homo sapiens, UniProt P50991)`, interaction screen read “cross-linked” (CCT2 (Homo sapiens, UniProt P78371); hits only).
`MPHOSPH8 (Homo sapiens, UniProt Q99549)` — result for interaction screen: “cross-linked” (TASOR (Homo sapiens, UniProt Q9UK61); hits only).
`SPTBN1 (Homo sapiens, UniProt Q01082)`: cross-linked residues “E1266 to D132” (PCDHGA10 (Homo sapiens, UniProt Q9Y5H3); cell fractions; added: DHSO).
`GTF2F2 (Homo sapiens, UniProt P13984)`: interaction screen “cross-linked” (GTF2F1 (Homo sapiens, UniProt P35269); hits only).

Repeated from above (sample 2):
The remaining binding was 29% (Tyrosine-protein kinase ABL1, non-phosphorylated (ABL1, Homo sapiens, UniProt P00519, F317L)).
Serine/threonine-protein kinase Nek3 (NEK3, Homo sapiens, UniProt P51956) — remaining binding: 69%.
The remaining binding was 100% (Dual specificity protein kinase TTK (TTK, Homo sapiens, UniProt P33981)).
Hepatocyte growth factor receptor (MET, Homo sapiens, UniProt P08581, M1250T) — remaining binding: 70%.
